Assay results collected from several papers.
Every numbered part comes from another study and shows a few of its results, in no order. Substitutions count along the parent as printed.

Series 1
Target: CCNB1, cyclin fold, Cln2 fusion (human)
Method: yeast growth competition, sequencing
Medium: yeast
Notes: weak parent motif
Reference: not given
Reading: higher = stronger binding
Parent: DOT1L docking peptide (human); SEAKRRIVFTITT
Change | normalised enrichment score
E2A | 0.536
T13A | 0.288
I7A | -0.0949
S1A | 0.381
R5A | 0.0779
R6A | -0.304

Series 2
Target: RNA binding protein fox-1 homolog 2, RRM domain, GST-SBP tag (RBFOX2, Homo sapiens, UniProt O43251-10, residues 100-194)
Method: RNA Bind-n-Seq
Form: RNA
Medium: in vitro
Tested at: 365 nM
Notes: natural RNA segment, single round, ends assumed
Reference: no-protein control
Reading: higher = stronger binding
Shared flanks, not repeated: GGGAGUUCUACAGUCCGACGAUC … UGGAAUUCUCGGGUGCCAA
Residues (chain): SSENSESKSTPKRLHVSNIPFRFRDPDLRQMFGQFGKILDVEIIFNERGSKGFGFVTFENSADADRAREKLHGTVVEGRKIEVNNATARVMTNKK
Oligonucleotide | RBNS enrichment (R)
UCAAACCUGUGGCCACUCUAUAUGCACUUUGUUUACUCUUUAUACAAAUAAAUAUACUAAAGACUUUCAUGCAUAUGCCUUUUAAUAUUAAGAUUUCAUUUUCAAAGCAU | 0.788
UGGUUCCUCUCCCUUUUCCCCUGGUCACGGCUACUCAUGGAAGCAGGACCAGUAAGGGACCUUCGAUAAAAAAAAAAAAGACAAUAAUAAAAAGGCUCAUUAAUGGGAUG | 0.393
CCUCUAAGACAUAUGUAUUUCACACUAGAUGGCGUCGGACAUUGCCAUAUCUCCUGUGGCACCUAGGCAGCCCAAUCUCAGGGUUAGUUUUUUCCAGGGAAAACAAUGUG | 0.38
UACUGAGAAGGUCCUCCUUCCUCUUGACUUUGUGGUCUGAAACCUGGUCUUACUGUCCAUGUGUGUUUGGGCCCGGAUGGUCAGGGUGGGGAGCAGGGACGGCCAUGGGC | 0.489
UUUUAGUCCAUUUUGUUUUCAAUACGAUUUAAUAUCGAUCAGAGUAAUUCUUUUGUACAUUGAAAUGAGGGGCUUGGUUUAAAAAAAGACCUUUCCCUCUCCCUGCCCCU | 0.364
GGACACUGGCCUCUUAGUGCCCGGCUGCCGAGCUCUUGGCCUUGUCCCCUGGGGCAUCUCUGUCCCCUCCACCUGCCCAAGACCCAACUCUAGGAUGAAGGCCUUGAAUA | 0.279
UUUUUUAUGGUUAAAAGUAACUUUUGUAGUUUAAAAAAAUCUUUCCUCUUUCAUAUAAAUAAGAAGUGGAAAUUGCCUUUUUAUUGUGUAAUGUAGAAAACCCUCAAGUG | 0.636
CUUUUCUUUCUCACCCUCUUUGACCCAGAUUUUAUAGAGCGAGUUUCUCAACCUCUGCACAGUUGACAUUUUGAGCCAAAUUAUUCUUUGUUGUGGUAGGCAGUCCUGUG | 0.808
GUCAUUCACGUGUCCUUUCAUGUGCUUGCUUUAGGGAAACAGUCCUUCACAAGUCUGCCUUUCACCUGUGUCUGCUUCAGCAAAAUGUUCUUUCACAUUUGCCCCAGCAA | 0.213
GCGAGUAGAGAGCAGCCCUCAUUCACCACCUGGUCCCAGACGUGCUUCAGUCCUCGUCCUCUCUUUGUGGCUGGCUCCCAGCCUUCUCUUUCCUCUUGAGGAUACUUAGG | 0.293
CAAACCAUUUUCAGAGACUUUGGGGAAUGCAGUGAUCAGAAGUGGCUAAUUUAUUUUAUUUCUGAUUAUUUUAUCCAGAGGGUACUUUUUUAAUGGAUAUUUGUAAAUCU | 0.841
CAAGUCUGUGAGUGCGUCUGAGGGGACAUCGCCAAGGACUGACUGAGACACGAUGCCGAGACCUCAAGCCCUGAGGGGCAGUCCCAAAACCCUUACAGUGAAGAUGUUUA | 0.578

Series 3
Target: ABI1, truncated, D143A, DHFR fusion (Arabidopsis thaliana)
Method: DHFR PCA, deep sequencing
Medium: yeast
Notes: methotrexate growth selection, single substitutions
Together with: (+)-ABA 0.032 µM
Reference: wild-type fitted maximum
Reading: higher = stronger binding
Parent: PYL1, truncated, DHFR fusion (Arabidopsis thaliana); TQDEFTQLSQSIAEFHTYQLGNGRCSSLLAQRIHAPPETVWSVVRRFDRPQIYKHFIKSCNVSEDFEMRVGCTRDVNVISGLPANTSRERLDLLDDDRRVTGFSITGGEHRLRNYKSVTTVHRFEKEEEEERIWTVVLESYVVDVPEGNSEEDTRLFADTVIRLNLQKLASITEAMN; partner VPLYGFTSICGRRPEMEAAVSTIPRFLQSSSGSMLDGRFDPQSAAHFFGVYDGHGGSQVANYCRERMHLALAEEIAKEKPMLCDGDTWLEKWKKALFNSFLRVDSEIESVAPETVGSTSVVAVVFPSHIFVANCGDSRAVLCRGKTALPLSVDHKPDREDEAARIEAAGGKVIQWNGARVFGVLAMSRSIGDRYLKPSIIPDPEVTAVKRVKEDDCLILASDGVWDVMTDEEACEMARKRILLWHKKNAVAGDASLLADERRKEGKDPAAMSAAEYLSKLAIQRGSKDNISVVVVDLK
Change | relative binding score [%]
I162G | 4.66
L82Y | 47.9
G81K | -1.95
C25P | 0.77
V40A | -3.68
S59T | 12.1
V121G | 2.27
W134S | 30.3
R132W | 4.84
R113K | 58.3
V142C | 23
I172N | -11

Series 4
Molecule: PhoQ, residues 284 288 289 292 302 303 NSMLDC
Method: Sort-seq
Item: YFP reporter
Medium: E. coli
Notes: PhoQ-PhoP variant library
Together with: 10 µM Mg2+
Reference: high Mg2+ state
Reading: higher = stronger signaling
target | fold induction
PhoP, residues 12 14 15 18 19 TQCLL (Escherichia coli, UniProt P23836) | 7.64
PhoP, residues 12 14 15 18 19 ICWRQ (Escherichia coli, UniProt P23836) | 4.32
PhoP, residues 12 14 15 18 19 VHTVL (Escherichia coli, UniProt P23836) | 5.93

Series 5
Target: Sal-like protein 4, full length isoform A (SALL4, Homo sapiens, UniProt Q9UJQ4, residues 1-1053)
Chain of UniProt Q9UJQ4 (whole entry, looked up): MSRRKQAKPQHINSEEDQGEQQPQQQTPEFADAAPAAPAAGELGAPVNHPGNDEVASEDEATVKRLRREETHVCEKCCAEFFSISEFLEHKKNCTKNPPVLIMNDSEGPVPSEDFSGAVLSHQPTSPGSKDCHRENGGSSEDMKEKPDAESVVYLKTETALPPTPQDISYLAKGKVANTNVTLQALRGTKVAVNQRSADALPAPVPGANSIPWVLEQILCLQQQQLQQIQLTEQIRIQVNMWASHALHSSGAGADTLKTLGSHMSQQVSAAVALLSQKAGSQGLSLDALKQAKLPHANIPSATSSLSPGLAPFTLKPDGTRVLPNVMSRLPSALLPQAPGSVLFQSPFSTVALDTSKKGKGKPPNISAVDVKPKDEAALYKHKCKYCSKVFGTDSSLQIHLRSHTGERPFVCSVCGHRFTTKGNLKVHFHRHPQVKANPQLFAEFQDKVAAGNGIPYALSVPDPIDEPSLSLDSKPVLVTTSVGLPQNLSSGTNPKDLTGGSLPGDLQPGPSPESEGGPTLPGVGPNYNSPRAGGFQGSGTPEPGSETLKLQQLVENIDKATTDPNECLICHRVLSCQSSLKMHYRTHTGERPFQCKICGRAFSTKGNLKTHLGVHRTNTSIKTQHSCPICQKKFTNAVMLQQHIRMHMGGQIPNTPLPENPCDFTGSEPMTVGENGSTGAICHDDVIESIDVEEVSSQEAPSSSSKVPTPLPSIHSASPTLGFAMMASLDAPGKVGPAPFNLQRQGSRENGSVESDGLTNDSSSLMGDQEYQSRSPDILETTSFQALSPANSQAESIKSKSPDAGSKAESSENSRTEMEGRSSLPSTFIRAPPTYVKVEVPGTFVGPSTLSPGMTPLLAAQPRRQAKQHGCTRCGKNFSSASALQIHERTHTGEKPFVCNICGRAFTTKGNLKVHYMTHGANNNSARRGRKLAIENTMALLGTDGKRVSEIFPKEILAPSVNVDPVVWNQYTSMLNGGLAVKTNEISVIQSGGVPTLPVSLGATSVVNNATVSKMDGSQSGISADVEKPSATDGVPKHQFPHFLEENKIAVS
Method: universal PBM
Form: double-stranded DNA, one strand shown
Medium: in vitro
Tested at: 600 nM
Notes: 8-mer, flanks averaged, mean of replicates
Reading: higher = stronger binding
Oligonucleotide | E-score
ACTAAGTG | 0.0868
CGGGACAC | -0.309
AAGCTCGG | -0.213
AACGTCAG | -0.0763
CAATCGGG | -0.243
ACTTGTAG | 0.218
AGAGGCCA | -0.184
AAGAATCT | 0.0174
CCAGGGGA | -0.261
CATGAGCC | -0.104
CGCGTGAG | -0.12
GAGCGCCC | -0.388
GCCTCTAA | -0.124
AATAGGAT | 0.289
ACTCAGCG | -0.0742
AATTACCG | 0.0986
AAGAATGC | 0.141
AGCTAACA | -0.028
GACTGATA | 0.0461
AACCCGCA | -0.124
AACCACGT | -0.0456
TATTGACA | 0.263
ACTGTCAG | -0.0183

Excerpt of the above (series 5):
Oligonucleotide | E-score
CGGGACAC | -0.309
AAGAATCT | 0.0174
ACTCAGCG | -0.0742
AGAGGCCA | -0.184
AATAGGAT | 0.289
